Measurements of several laboratories.
Parts stem from different laboratories: compare values within a part only. Positions count from the first letter of the parent shown.

Study 1
Target: CCNE2, cyclin fold, Cln2 fusion (human)
Technique: yeast growth competition, sequencing
Matrix: yeast
Setting: strong parent motif
Relative to: not given
Reading: higher = stronger binding
Parent: RBL2 docking peptide (human); STTRRRLFVENDS; partner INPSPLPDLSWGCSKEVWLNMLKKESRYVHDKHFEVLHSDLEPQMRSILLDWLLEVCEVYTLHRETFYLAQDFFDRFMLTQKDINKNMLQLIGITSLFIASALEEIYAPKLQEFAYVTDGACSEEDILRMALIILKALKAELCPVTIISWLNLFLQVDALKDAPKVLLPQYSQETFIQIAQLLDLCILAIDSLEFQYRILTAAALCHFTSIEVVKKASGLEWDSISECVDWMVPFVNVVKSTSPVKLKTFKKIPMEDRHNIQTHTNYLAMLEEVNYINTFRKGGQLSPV
| Change | normalised enrichment score |
| --- | --- |
| S1Q | 4.89 |
| R4Q | 0.656 |
| T3S | 2.22 |
| S1V | 3.89 |
| N11K | 4.33 |
| R4W | 0.65 |
| T2I | 2.96 |
| T3W | 4.3 |
| R6A | 0.476 |
| S1C | 5.02 |
| R4M | 0.887 |
| R5I | 0.102 |
| E10V | 2.55 |
| E10H | 2.83 |
| S13G | 4.72 |
| T3N | 0.000219 |
| L7V | 0.0617 |
| L7C | 1.18 |
| D12E | 4.07 |
| V9N | 3.83 |
| E10A | 2.88 |
| N11S | 3.97 |
| R4V | 3.53 |
| S1K | 4.69 |
| L7W | -0.0335 |

Study 2
Target: Centromere-binding protein 1, full length, N-terminal tag (CBF1, Saccharomyces cerevisiae, UniProt P17106, residues 1-351)
Sequence of UniProt P17106 (whole entry, looked up): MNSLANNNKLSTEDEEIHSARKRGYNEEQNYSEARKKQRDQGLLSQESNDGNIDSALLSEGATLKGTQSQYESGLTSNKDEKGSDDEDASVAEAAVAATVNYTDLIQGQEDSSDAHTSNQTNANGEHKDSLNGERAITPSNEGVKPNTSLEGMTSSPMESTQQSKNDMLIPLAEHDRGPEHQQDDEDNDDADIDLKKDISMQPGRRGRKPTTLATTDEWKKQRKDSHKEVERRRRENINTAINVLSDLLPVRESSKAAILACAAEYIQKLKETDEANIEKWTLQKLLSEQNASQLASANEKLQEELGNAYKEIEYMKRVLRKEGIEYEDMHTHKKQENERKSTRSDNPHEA
Technique: protein-binding microarray
Form: double-stranded DNA, one strand shown
Matrix: in vitro
Tested at: 0.8 µM
Setting: whole 60-bp probe, no competitor
Reading: higher = stronger binding
| Oligonucleotide | fluorescence intensity |
| --- | --- |
| GAACCAGACAAGAGTCAGGTGACGCTGCAGATGTAGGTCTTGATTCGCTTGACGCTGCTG | 4850 a.u. |
| CCTAACTACTATAACCTGTGCATATAGCTTCGTACAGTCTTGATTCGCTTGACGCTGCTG | 493 a.u. |
| GAAAACAAACGGCATTCGGTCACGTACGATAACTAGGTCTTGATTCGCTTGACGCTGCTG | 768 a.u. |
| CTATCTATAGCTGCACACCTGATTTTTTTGCTATTCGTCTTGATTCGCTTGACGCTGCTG | 800 a.u. |
| TGTACGAAGCTATATCACGTGTGTATAGTAGTTAGGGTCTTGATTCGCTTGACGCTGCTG | 9050 a.u. |
| GAAACTGAACTCAATGTGATGACCTGAAGCCACTAGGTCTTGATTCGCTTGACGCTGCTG | 519 a.u. |
| GAACGTCCCTACATTGTGGTGATGGTGTATAACTAGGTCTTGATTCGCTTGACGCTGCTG | 520 a.u. |
| CTACTAGATTGCAGTCACCTTTTCAATTAATCATTCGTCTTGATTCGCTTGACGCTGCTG | 569 a.u. |
| CTAATATAACATTAACATGTGCATGTACACACGTTCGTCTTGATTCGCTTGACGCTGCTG | 725 a.u. |
| CTATGCTCATCTCATCACCAGTAAAAAAATGTGTTCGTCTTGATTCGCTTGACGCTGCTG | 541 a.u. |
| CTAACGTTACGGCACACCGTGATGTACCCGCATTTCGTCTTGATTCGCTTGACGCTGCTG | 548 a.u. |
| CTAATGAAAGTTGTGCGTGTGTTGGTTACTTAGTTCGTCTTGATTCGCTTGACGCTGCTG | 578 a.u. |
| CTAGAACTCCTTTGCTGCGTGGCGTATTCCTCTTTCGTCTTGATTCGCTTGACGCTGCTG | 503 a.u. |
| CTATTCGTCCCGTACCAACCACGTGTTTTCCACTTCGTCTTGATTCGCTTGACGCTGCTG | 7140 a.u. |
| CTACCCGCGCTTGCGTGCATGTAACTAAGCAAATTCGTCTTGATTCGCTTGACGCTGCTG | 517 a.u. |
| GAAAAAGCGCAAGGCCGCGTGGACCACCAGGACTAGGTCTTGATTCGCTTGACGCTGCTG | 496 a.u. |

Study 3
Target: Sal-like protein 4, full length isoform B (SALL4, Homo sapiens, UniProt Q9UJQ4-2, residues 1-616)
Technique: universal PBM
Form: double-stranded DNA, one strand shown
Matrix: in vitro
Tested at: not given
Setting: 8-mer, flanks averaged, mean of replicates
Reading: higher = stronger binding
| Oligonucleotide | E-score |
| --- | --- |
| AAAGCTTA | 0.147 |
| GAGACAAA | 0.0406 |
| CCACCAAG | -0.276 |
| CCTATTCC | -0.0113 |
| AGGGCCCT | -0.147 |
| AGTCCTCA | -0.0487 |
| AGTAGTCC | 0.00388 |
| ACCCACGC | -0.196 |
| ATGACTAG | 0.145 |
| AATGCTAG | 0.0649 |
| AGCTCACT | -0.211 |
| CTATAGTA | 0.187 |
| CGGAAGCA | -0.0942 |
| TACGATGA | 0.148 |
| AAATAAAA | 0.318 |
| AGGCAGTC | -0.119 |
| CTCGACTC | -0.119 |
| AGGTTGAG | 0.0124 |
| AAGGGTTC | -0.22 |

Study 4
Target: Ras GTPase-activating protein-binding protein 1, full length (G3BP1, Homo sapiens, UniProt Q13283)
Sequence of UniProt Q13283 (whole entry, looked up): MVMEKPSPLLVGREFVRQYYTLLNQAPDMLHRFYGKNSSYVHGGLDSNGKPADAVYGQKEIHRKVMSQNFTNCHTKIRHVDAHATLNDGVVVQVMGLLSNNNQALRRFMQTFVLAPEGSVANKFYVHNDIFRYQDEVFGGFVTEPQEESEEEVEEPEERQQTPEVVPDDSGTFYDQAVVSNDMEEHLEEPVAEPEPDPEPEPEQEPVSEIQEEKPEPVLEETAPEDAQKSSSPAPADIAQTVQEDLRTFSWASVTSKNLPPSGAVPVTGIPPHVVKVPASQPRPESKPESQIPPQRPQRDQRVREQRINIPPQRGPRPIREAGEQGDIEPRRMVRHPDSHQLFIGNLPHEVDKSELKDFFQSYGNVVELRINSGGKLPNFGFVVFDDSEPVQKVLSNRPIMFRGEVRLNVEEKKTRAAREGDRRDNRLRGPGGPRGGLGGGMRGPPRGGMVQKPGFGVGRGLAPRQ
Technique: RNA Bind-n-Seq
Form: RNA
Matrix: in vitro
Tested at: 200 nM
Setting: whole 134-nt RNA, ends assumed
Added: 150 mM LiCl
Relative to: input library
Reading: higher = stronger binding
Library: 7-deaza-guanosine replaces G
| Oligonucleotide | log2 enrichment |
| --- | --- |
| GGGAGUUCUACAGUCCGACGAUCUGGCCCUGGUGGCAUGCGGGGAGGUAGAGGUGGCCUCAUGGAUCGUGGUGGUCCCGGUGGAAUGUUCAGAGGUGGCCGUGGUGGAGACAGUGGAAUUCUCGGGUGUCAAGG | 0.357 |
| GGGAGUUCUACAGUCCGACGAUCGUUGUAGACACUCCUGGGAUCCUGGACCACCCUCUGGAGGAUAGGAACACCAUCGAGAUGCAGGCCAUCACUGCCCUGGCCCACCUCCGUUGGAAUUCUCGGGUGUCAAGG | 0.743 |
| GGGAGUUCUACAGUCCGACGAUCGUCCUGUGCUACACAUCGUAUGUACCGAAUCGGGGAAAAGGGGAAAAGGGGAAAAGGGGAAAGUAUUAUGUUACGCCGUUCGGAUCUGCAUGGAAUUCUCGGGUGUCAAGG | 0.142 |
| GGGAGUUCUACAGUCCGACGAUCCCUCAAGUCCUGUGCUACACAUCGUAUGUACCGAAUCGGGAGGAGGGAGGGGAAAGUAUUAUGUUACGCCGUUCGGAUCUGCACUUCCAGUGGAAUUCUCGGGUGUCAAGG | 0.372 |
| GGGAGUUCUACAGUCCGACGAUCCAAGUCCUGUGCUACACAUCGUAUGUACCGAAUCGGGCCCGGGGCCCGGCCCGGGAAAGUAUUAUGUUACGCCGUUCGGAUCUGCACUUCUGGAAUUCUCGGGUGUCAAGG | -1.99 |
| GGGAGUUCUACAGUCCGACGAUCUCCUGUGCUACACAUCGUAUGUACCGAAUCGGAAAAAAGGGGAAAAAAGGAAAAAAGGGGAAAGUAUUAUGUUACGCCGUUCGGAUCUGCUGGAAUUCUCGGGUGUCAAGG | -0.358 |
| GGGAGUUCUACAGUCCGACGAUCACCAUGCAGGUGGGCAUCUUUGGGAAGUGGGGCAAGGGUGGGAUAGGGAGGGGGGUAACACUUUGGGAACAGGUGGUCCCAGGUCGUUUCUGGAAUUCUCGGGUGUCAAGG | 0.344 |
| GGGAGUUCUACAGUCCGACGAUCAGUCCUGUGCUACACAUCGUAUGUACCGAAUCGGAAAAAAAGGUUUUUGGAAAAAGGAAAGUAUUAUGUUACGCCGUUCGGAUCUGCACUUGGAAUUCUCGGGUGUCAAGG | -2.4 |
| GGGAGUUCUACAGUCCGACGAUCUGGGAGGUGGAUUUUGUUUAUUUUUUUAGCUCAUUUCCAGGGGUGGGAAUUUGUUUUUAAUAUGUGUCAUGAAUAAAGUUGUUUUUGAAAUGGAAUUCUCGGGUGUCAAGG | -0.618 |
| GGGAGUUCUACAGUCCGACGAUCCAAGUCCUGUGCUACACAUCGUAUGUACCGAAUCGGAAAAAAAGGAAAAAGGUGGAAAGUAUUAUGUUACGCCGUUCGGAUCUGCACUUCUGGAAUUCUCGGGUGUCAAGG | -0.91 |
| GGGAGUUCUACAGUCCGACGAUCUGGCCCUGGUGGCAUGCGGGGAGGAAGAGGUGGCCUCAUGGAUCGUGGUGGUCCCGGUGGAAUGUUCAGAGGUGGCCGUGUUGGAGACAGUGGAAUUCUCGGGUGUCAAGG | -0.451 |

Study 5
Target: Histone acetyltransferase KAT6A, winged helix 1, GST fusion (KAT6A, Homo sapiens, UniProt Q92794, residues 1-85)
Technique: protein binding microarray
Form: double-stranded DNA, one strand shown
Matrix: in vitro
Tested at: not given
Setting: 8-mer, flanks averaged, mean of 2 arrays, mostly near background
Relative to: not given
Reading: higher = stronger binding
Target sequence (chain): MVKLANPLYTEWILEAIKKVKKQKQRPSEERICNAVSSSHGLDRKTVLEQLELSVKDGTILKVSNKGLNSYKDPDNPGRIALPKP
| Oligonucleotide | E-score |
| --- | --- |
| CAGGTACA | -0.126 |
| AAGCAGCT | -0.0793 |
| GCCAGGAC | 0.046 |
| CAAAGCAG | -0.21 |
| CCTACTGA | -0.282 |
| GGACCACA | -0.118 |
| GGACGCCA | 0.0733 |
| AAGCAAAC | -0.139 |
| ACTGCCCG | 0.144 |
| CCTGCCGC | 0.323 |
| GCGATGAC | 0.217 |
| AGAATTAC | 0.0228 |
| CAAGACCG | 0.176 |
| ACAATCCG | 0.125 |
| GTTCCTCA | -0.0489 |
| AATACGCC | 0.201 |
| GCACATCA | 0.0304 |
| AACGAGGA | -0.25 |
| ACGAAAAG | -0.117 |
| CAAGGCTC | -0.0546 |
| CAGGACAA | -0.244 |
| CCTACTTC | -0.202 |
| GGCCCAAA | -0.15 |
| GATCATGA | -0.151 |
| ACAGAAAG | -0.175 |
